Published values from different studies.
Parts stem from different laboratories: compare values within a part only.

Block 1
Target: RING finger protein unkempt homolog, zinc fingers 1-6, GST-SBP tag (UNK, Homo sapiens, UniProt Q9C0B0, residues 30-357)
Method: RNA Bind-n-Seq
Form: RNA
Matrix: in vitro
Tested at: not given
Notes: RNA with constant flanks, ends assumed
Baseline: input RNA pool
Reading: higher = stronger binding
Measurement: bound/input enrichment
All sequences stand within: GGGAGUUCUACAGUCCGACGAUC … CAACAGAGGAUUGAGCAUCA
Construct (chain): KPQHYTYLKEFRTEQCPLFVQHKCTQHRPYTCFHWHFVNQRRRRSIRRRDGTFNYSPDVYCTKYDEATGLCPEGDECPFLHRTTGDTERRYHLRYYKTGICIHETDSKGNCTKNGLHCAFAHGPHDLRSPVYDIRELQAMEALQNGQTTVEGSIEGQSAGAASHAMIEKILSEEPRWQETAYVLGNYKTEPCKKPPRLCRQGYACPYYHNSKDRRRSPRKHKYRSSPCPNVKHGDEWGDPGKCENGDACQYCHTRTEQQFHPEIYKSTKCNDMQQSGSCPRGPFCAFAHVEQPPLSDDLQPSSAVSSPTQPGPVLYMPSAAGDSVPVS
AGUUGAUAGUUUCACUCCCAAGCAAUGAAUUGCUUCUGUGUGUUUCCCUGUAGGACUCAACCGUAAAUGCUGUCUGUCUUACACAUUUAUAAGGACCCUGCAAGACGACGACAAAGGCCU: 0.315 ratio
GAGAUGACGCUGGCCCAGCUAUUUCUACAGUCUGAAGCUGCUUAUUGCUGUGUCAGUGAAUCCGGAGAGCUUGGGAAGGUCCAAUUUCGGGAUUUAAAUCCAGAUGUGAAUGUUUUCCAG: 0.109 ratio
GCUAUGCAAGCCUUAACUCUUCUGGGAGCAUGUGUAUCAAACUGUGGCAAAAUUUUUCACUCCGAAGUAUGUUCAAGAGACUUUGCUAGUGAAGUAAGCAAUGUAUUAAAUAAGGGUCAU: 0.298 ratio
AACUUACAGCCUCUUUCUGAAAGGCUGACACUUCUUGCCAUUUUCAUAUCAACUUUUCUCUUCCGUCUGACAUGGCAAUUUAAUCAAUUUAUGAUGCUGAUGCAAGCAUUAGUGCUGUUC: 0.901 ratio
UCCGGUUUGGUAAUCAAUACACCUGGAGAAAUGGCUGGAGCCUUCGUGGCAGUGUUUUUACCCGCAAUGUUUUAUGAAGGACUCAAGAUAGCCCGAGAGGGUCUGCUUCGAAAGUCUCAA: 0.0816 ratio
UGUGGAAUCAAGCACCUUCACUCUGCUGGAAUUAUUCAUCGGGACUUAAAGCCUAGUAAUACCGCCGUCAAAUCAGACUGCACUUUGAAGAUUCUUGAUUUUGGACUGGCGAGGACUGCA: 0.342 ratio
GCUUCCUUAGGUCUAGAGAAGUUGGUAAGCCCUCCAGCCUCAGCCGCUGCUUCCAGCCCCCGUUCUUCUCCAUCUCCACAGCCUGUUUCAGAGCUUGACAUGUCCUCAGAGCCACCUCAG: 0.523 ratio
CUCAUUGUCUUAGGAUAUAAUGGAUCUCUCCCAAACGGUGAUAGAGGAAGGAGGAAAAGCCGGUUUGCUUUGUUUAAAAGACCUAAGGCAAAUGGGGUGAAGCCUAGCACCGUGCACAUU: 0.175 ratio
UCACUUACUCGAAGUGGGAAGAGAAACAAGAUGUUAAGAAGUUCUUUGCCAUGGAGGGAAAACCGUUGGGAAGGAUAUAGUGGAAAUGUGAAGAUCAGAAAGCGUAAUGAUAUUCCAUGC: 0.225 ratio
AAGAUUUUAGAAGAAUUUAGGAAAACACAACAGACAUCCCCUGACAAGGUGGAUUAUGAAUACCGUGAACUACUCUUAUAUCAGAAUCAAGUUCUUCGGGAAGCAGGUCUCUAUAGAGAA: 2.36 ratio
AUUAAAAUAUUACUACUGGGUUAUUAACCCUGCUGACAGCAGUGGCAUUGCACCUAAAGGACCCGGUAAGCUCCUCUGCGGCCUCAUUUCCAUUUUCCUGUGUUUAGAUCCGGGGUGCAG: 0.687 ratio

Block 2
Target: Histone acetyltransferase KAT6A, winged helix 2, GST fusion (KAT6A, Homo sapiens, UniProt Q92794, residues 85-181)
Method: protein binding microarray
Form: double-stranded DNA, one strand shown
Matrix: in vitro
Tested at: not given
Notes: 8-mer, flanks averaged, mean of 2 arrays, mostly near background
Baseline: not given
Reading: higher = stronger binding
Measurement: E-score
Construct (chain): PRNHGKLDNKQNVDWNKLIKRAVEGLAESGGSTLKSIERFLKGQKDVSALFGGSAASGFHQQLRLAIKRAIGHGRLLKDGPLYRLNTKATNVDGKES
ACGAACTC: 0.0997
ACATCAGC: 0.075
AGTTATCG: 0.0429
CGCGTCTC: 0.0424
AAGAGTAC: 0.0814
AGTCCGCG: 0.0887
CGCTGTCC: 0.159
ATGGTGAG: -0.151
ACACGGCT: 0.041
AGCAGCGC: -0.0347
ACGACCCG: 0.114
CATAAATG: -0.0988
CAAATGAA: 0.0789
AATGGCAA: 0.126
CTCTCAGC: -0.22
GATCCTCA: -0.0159
AAAGGCCG: 0.0591
GTTTGTTA: 0.217
AGTTCACC: 0.0926
GGTATGTA: -0.287

Block 3
Target: RNA binding protein fox-1 homolog 2, RRM domain, GST-SBP tag (RBFOX2, Homo sapiens, UniProt O43251-10, residues 100-194)
Method: RNA Bind-n-Seq
Form: RNA
Matrix: in vitro
Tested at: 365 nM
Notes: natural RNA segment, single round, ends assumed
Baseline: no-protein control
Reading: higher = stronger binding
Measurement: RBNS enrichment (R)
All sequences stand within: GGGAGUUCUACAGUCCGACGAUC … UGGAAUUCUCGGGUGCCAA
Residues (chain): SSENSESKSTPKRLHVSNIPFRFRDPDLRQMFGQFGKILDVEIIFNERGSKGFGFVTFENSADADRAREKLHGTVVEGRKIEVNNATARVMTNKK
GUCCAAGGCUGAGUGAGAGCCGGCCAUGCCUCCCCUCCUACUCCUCUGAAUCUCCCGACCUUGGUCCCCUGCCCAAGAGAGGGUAAGGAGGCUGGUGGGGGAUACGGUGG: 0.208
AGGGUCUGUUUUGGUCAAAUCUUGAAUUUCGUUGUUGCACUCUAGUGACUGAUCUUUGGGAAUGUCUUGUCUUUGCAUGGGGCUCAUAGAGAUGUGUGCAGACUUGCUUA: 3.91
UGUUUGUAGCUGAUUGUUGUGUUUUAUAAAUCUUCUGUUAAGGCAGAAGGGUGAUUAUGAGUGGUUCACAGCAGCCCUUAUAAGCUGGGCCAGAAAAUUUCACUAGGUCA: 0.576
AUUAUAUAUUUUCCUUCCUGAUUGAAUCAUCAUCACUCCCUGUAACUAGCGAAAACCACCAGUCCAGACCUUAUCCAUUCUACUCAUUCACAGUUUUAAAAACUGCCAUG: 0.711
AAAAAUGAAGGAGCUUUGUAAAUUUUUUAAAAAUUAUGAAUCGUAUCAAGUAGUUGUUUACAUUUGACAAAAUAGGAACUAUGCCGGCAGAGUCCAACCGAAAACCCCCU: 0.31
UUUUUUUUUGAAAGUUUCAGCCUGUGGGAGGAAAAGAGGUAUCUUUUAAAAUAGAGAUAGUUACAUAUUUUCCUCAUCUAGGCUGUGUCACUAUUGGGUGCAAGGAUAUC: 0.363
GUAUGUAUGUUCUGUACAUACUUAUCGGAGCGCGCCAGUAAGUAUCAGGCAUAUAUAUCUGUCUGUUAGCAAUGAUUAUUACAUCAUCAGAUCAGCAUGUGCUAUACUCC: 1.26
AUACCUAUGUUCGAUUUUGUUUUGUUUUGUUUUGUUCUGGCUUUGAGGCUUGUUUUGUUGUCUGUGUCUGUCUGAAUAACCUGCGUGUCUAAAACCACGUGAAAUGUGAA: 22.9
CUCCCAGGUGGGAGUGCCUCUAGUCUGGUGGUCCUCAAAGACUCAUCCACAGCAGCAUCUGCCCAUCCCAGGCUCCUCUCUCCUCAGACUCCUCCUAUCUGGCUUGUGCU: 0.634
AUAGACACCCCGUCUUAAGCACCAGCUCCUCUUGGGUGCCCCCAGAGCCCCUGCAACUGUUAUCCACAUACAACAGGGAUAUCGGACUGCUUUCUUCUUCCGGCUGGUAC: 0.263
ACCAGAGCAUGAUGUUGCUGGCCAGAUGACCCCUUUUGCUGUAUUGAAAUUAACUUGGUAGAUGGCUUUAGCUUAGAAAAGCAGCUUCUUAGAACCAAGGGCCUCAUUAU: 9.17
UGUAAGGAGAGGUUUUAAUUAAAACAAAAAAAAAUUCUUUUUUUUUUUUUUUUCCAAUUUUACCUUCUUUAAAAUAGGUUGUUGGAGCUUUCCUCAAAGGGUAUGGUCAU: 0.67

Block 4
Target: Sal-like protein 4, full length isoform B (SALL4, Homo sapiens, UniProt Q9UJQ4-2, residues 1-616)
Method: universal PBM
Form: double-stranded DNA, one strand shown
Matrix: in vitro
Tested at: not given
Notes: 8-mer, flanks averaged, mean of replicates
Reading: higher = stronger binding
Measurement: E-score
AAGACTTC: -0.0404
AATTTACA: 0.342
CATTGCCC: -0.231
GCTTTGTA: 0.0763
CCTATGCC: -0.0514
AGATCTTG: 0.023
CTTCATAC: 0.235
CGCTACCC: -0.247
AGTCTCAA: -0.102
ATCTTAGG: -0.0598
ACTGATGG: -0.146
ACTTTTAG: 0.0518
AGCCTTAT: 0.107
CAGGGACA: -0.184
CCTACAAC: 0.0258
AGACGCTC: -0.216
AAGATTAT: 0.3

A few entries again (block 3):
GUCCAAGGCUGAGUGAGAGCCGGCCAUGCCUCCCCUCCUACUCCUCUGAAUCUCCCGACCUUGGUCCCCUGCCCAAGAGAGGGUAAGGAGGCUGGUGGGGGAUACGGUGG: 0.208
AGGGUCUGUUUUGGUCAAAUCUUGAAUUUCGUUGUUGCACUCUAGUGACUGAUCUUUGGGAAUGUCUUGUCUUUGCAUGGGGCUCAUAGAGAUGUGUGCAGACUUGCUUA: 3.91
UGUUUGUAGCUGAUUGUUGUGUUUUAUAAAUCUUCUGUUAAGGCAGAAGGGUGAUUAUGAGUGGUUCACAGCAGCCCUUAUAAGCUGGGCCAGAAAAUUUCACUAGGUCA: 0.576
AUUAUAUAUUUUCCUUCCUGAUUGAAUCAUCAUCACUCCCUGUAACUAGCGAAAACCACCAGUCCAGACCUUAUCCAUUCUACUCAUUCACAGUUUUAAAAACUGCCAUG: 0.711
AAAAAUGAAGGAGCUUUGUAAAUUUUUUAAAAAUUAUGAAUCGUAUCAAGUAGUUGUUUACAUUUGACAAAAUAGGAACUAUGCCGGCAGAGUCCAACCGAAAACCCCCU: 0.31
UUUUUUUUUGAAAGUUUCAGCCUGUGGGAGGAAAAGAGGUAUCUUUUAAAAUAGAGAUAGUUACAUAUUUUCCUCAUCUAGGCUGUGUCACUAUUGGGUGCAAGGAUAUC: 0.363
